# Measured values of several laboratories.
# Compare with care: the assays were run in different laboratories. ± gives the spread as reported.
Structure (SMILES),test system,setting,measurement,value
COc1ccc(CC(=O)OCc2ccc(-n3cccn3)cc2)cc1F,"BALB/c mouse, plasma","intravenous, 2 mg/kg",AUC(0-t),10400 ng·h/mL
Cc1c(-c2ccccc2)nn2c(=O)cc(-c3cccc(-c4nnn[nH]4)c3)[nH]c12,human liver microsomes,"1 µM, 30 min",remaining compound,88.4%
O=C(OC(C(F)(F)F)C(F)(F)F)N1Cc2ccc(Br)cc2C1,"male CD-1 mouse, brain","intravenous, 2 mg/kg, 15 min, cassette dosing",brain concentration,0.192 ± 0.032 µg/g
Cc1n[nH]c(C)c1CCOC(=O)c1cccc2c1oc(=O)n2C,"BALB/c mouse, plasma","intravenous, 2 mg/kg",clearance,4.38 mL/min/kg
CC(C)n1nnc(-c2cc(O)cc(Nc3ncnn4ccc(CN5CCC(N)CC5)c34)c2)n1,"mouse, brain","subcutaneous, 10 mg/kg, 90 min",total brain concentration,0.04 ± 0.03 µM
NC(=O)c1cn(-c2ccc(F)cc2)c2ccc(NCc3cccnc3)cc2c1=O,rat,"iv, 0.2 mg/kg, 15 min, cassette dosing",Kp brain/plasma,0.04
Nc1ncc(-c2ccc3ncnc(N4CCc5cc(F)c(Cl)cc54)c3c2)cn1,"CD1 mouse, plasma","intravenous, 5 mg/kg",Cmax,1490 ng/mL
Cc1cc(NC(=O)c2cccc(NC(=O)C3=CC(C)(C)CCC3=O)c2)ccc1Nc1nccc(-c2cccnc2)n1,rat plasma,"1 µM, 5 min",compound remaining,103%
Cc1ncc(CCc2ccc3c(c2)c(=O)c(C(N)=O)cn3-c2ccc(F)cc2)cn1,"rat, brain","iv, 0.2 mg/kg, 15 min, cassette dosing",concentration,5.6 nM
CCCSc1nc(N[C@@H]2C[C@H]2c2ccc(F)c(F)c2)c2nnn([C@@H]3C[C@H](O)[C@@H](O)[C@H]3O)c2n1,"rat, male, plasma","oral, 60 mg/kg/day ticagrelor, week 26",AUC,77.6 µM·h

# Excerpt of the above:
Structure (SMILES),test system,setting,measurement,value
NC(=O)c1cn(-c2ccc(F)cc2)c2ccc(NCc3cccnc3)cc2c1=O,rat,"iv, 0.2 mg/kg, 15 min, cassette dosing",Kp brain/plasma,0.04
